Results collected from several papers.
Each numbered part is a random draw from the data of one study; scales do not carry over between parts. Several values in a cell are separate wells, animals, samples, runs or records. Substitutions count along the parent as printed.

Study 1
Target: Ras GTPase-activating protein-binding protein 1, full length (G3BP1, Homo sapiens, UniProt Q13283)
UniProt Q13283, sequence (whole entry, looked up): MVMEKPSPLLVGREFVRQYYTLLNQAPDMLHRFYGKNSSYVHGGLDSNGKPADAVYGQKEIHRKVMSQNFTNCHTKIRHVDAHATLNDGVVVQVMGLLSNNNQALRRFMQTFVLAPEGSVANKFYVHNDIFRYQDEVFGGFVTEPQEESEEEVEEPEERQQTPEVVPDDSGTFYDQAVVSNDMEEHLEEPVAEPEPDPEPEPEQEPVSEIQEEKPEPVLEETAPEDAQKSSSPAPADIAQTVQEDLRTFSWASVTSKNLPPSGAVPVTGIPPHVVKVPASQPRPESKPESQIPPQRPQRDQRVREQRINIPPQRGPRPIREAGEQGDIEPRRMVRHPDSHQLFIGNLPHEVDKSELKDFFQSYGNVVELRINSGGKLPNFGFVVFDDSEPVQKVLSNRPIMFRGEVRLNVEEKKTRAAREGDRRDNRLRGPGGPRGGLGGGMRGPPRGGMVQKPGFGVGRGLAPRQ
Technique: RNA Bind-n-Seq
Form: RNA
Sample: in vitro
Tested at: 200 nM
Setting: whole 134-nt RNA, ends assumed
With: 150 mM KCl
Baseline: input library
Direction: higher = stronger binding
| Oligonucleotide | log2 enrichment |
| --- | --- |
| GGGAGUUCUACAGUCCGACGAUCGCAGGAAGUAAAAACAAAUGGAAAUGCUUCGGAUAGUGGCAGGGGUGGGGGUUGCUAAGGAAAGGGUGGGAUGAAAGUGGGUAAAGAGUUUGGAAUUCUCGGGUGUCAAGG | 0.753 |
| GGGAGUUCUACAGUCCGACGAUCUCAAGUCCUGUGCUACACAUCGUAUGUACCGAAUCGGGGCCGGGCCGGGCCGGGAAAGUAUUAUGUUACGCCGUUCGGAUCUGCACUUCCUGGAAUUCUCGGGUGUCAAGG | 0.137 |
| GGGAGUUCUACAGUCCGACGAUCCUGUGCUACACAUCGUAUGUACCGAAUCGGGGCCCCCCCGGGGCCCCCCCGGCCCCCCCGGGAAAGUAUUAUGUUACGCCGUUCGGAUCUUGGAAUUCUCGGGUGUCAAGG | -1.12 |
| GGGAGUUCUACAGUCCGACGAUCCUCAAGUCCUGUGCUACACAUCGUAUGUACCGAAUCGGCCGGGGCCGGGCCGGGAAAGUAUUAUGUUACGCCGUUCGGAUCUGCACUUCCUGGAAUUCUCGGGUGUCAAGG | -0.423 |
| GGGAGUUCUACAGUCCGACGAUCGUCCUGUGCUACACAUCGUAUGUACCGAAUCGGGUUUUUGGGGUUUUUGGUUUUUGGGGAAAGUAUUAUGUUACGCCGUUCGGAUCUGCAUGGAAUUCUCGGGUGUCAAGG | -0.511 |
| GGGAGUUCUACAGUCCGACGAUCCACAGACAACACGCACCCACACAGACACAGAGGGAAGGGGUUGGGAUGGGGAAAGGGUGCACAGCAGGGCGGGGUAGGACCCCAGCCCCUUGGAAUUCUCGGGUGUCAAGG | 1.77 |
| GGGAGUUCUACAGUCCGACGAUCAAGUCCUGUGCUACACAUCGUAUGUACCGAAUCGGUUUUUUUGGUUUGGAAAAAGGAAAGUAUUAUGUUACGCCGUUCGGAUCUGCACUUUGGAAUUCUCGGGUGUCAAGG | -1.57 |
| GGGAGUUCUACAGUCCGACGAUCGUCCUGUGCUACACAUCGUAUGUACCGAAUCGGUUUUUUGGGUUUUUUGGUUUUUUGGAAAGUAUUAUGUUACGCCGUUCGGAUCUGCACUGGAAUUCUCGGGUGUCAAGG | -1.08 |
| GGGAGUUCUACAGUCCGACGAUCUAACUUUAGAGGAGGAUCUGAUGGAUAUGGCAGUGGACGUGGAUUUGGGGAUGGCUAUAAUGGGUAUGGAGGUGGACCUGGAGGUGGCAAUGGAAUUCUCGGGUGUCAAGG | 0.48 |

Study 2
Target: CCNA1, cyclin fold, Cln2 fusion (human)
Technique: yeast growth competition, sequencing
Sample: yeast
Setting: weak parent motif
Baseline: not given
Direction: higher = stronger binding
Starting sequence: CDC25A docking peptide (human); PPHRRRLLFACSP
| Substitution | normalised enrichment score |
| --- | --- |
| R6W | 0.621 |
| S12I | 0.443 |
| P13Q | 0.483 |
| H3Q | 0.119 |
| F9N | 0.543 |
| R4E | 0.246 |
| A10N | 0.0791 |
| P13K | 0.103 |
| C11Y | 0.172 |
| R5K F9L | 0.603 |
| P13M | -0.109 |
| L7A | 0.367 |
| P13E | 0.271 |
| R4K | 0.409 |
| L7T | 0.395 |
| L7C | 0.321 |
| F9R | 0.604 |
| R4H | 0.00715 |
| C11P | 0.45 |
| R6P | 0.038 |
| P1I | 0.249 |
| L8V | 0.329 |

Study 3
Target: Phosphate system positive regulatory protein PHO4, full length, GST-tagged (PHO4, Saccharomyces cerevisiae, UniProt P07270, residues 1-312)
Technique: competition protein-binding microarray
Form: double-stranded DNA, one strand shown
Sample: in vitro
Tested at: 2 µM
Setting: whole 60-bp probe, lowest competitor level
With: Cbf1 competitor, 0.05 µM
Direction: higher = stronger binding
Residues (chain): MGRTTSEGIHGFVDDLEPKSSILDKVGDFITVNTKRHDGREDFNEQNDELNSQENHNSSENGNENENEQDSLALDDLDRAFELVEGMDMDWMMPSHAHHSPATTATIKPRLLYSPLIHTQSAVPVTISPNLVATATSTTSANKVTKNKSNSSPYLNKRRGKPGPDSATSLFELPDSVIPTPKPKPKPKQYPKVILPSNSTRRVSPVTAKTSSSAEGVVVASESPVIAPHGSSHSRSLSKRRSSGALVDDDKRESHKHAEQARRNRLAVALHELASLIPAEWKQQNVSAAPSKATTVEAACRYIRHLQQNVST
| Oligonucleotide | fluorescence intensity [a.u.] |
| --- | --- |
| CTAACGAAGGTTTGGCCTGTGGGTGACAAGCCAAGTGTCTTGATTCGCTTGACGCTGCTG | 3600 |
| CCGAAAAGGGCCCATCACGGCACATCTGAAGAAAAGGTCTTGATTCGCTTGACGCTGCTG | 3730 |
| TGCGCAACAACTTGAGCCGTGGGTGTATGTCTAGAAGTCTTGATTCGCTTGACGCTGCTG | 5170 |
| CGTCCTAGCGATTGATACGTGGGTGCCATGAGGAAGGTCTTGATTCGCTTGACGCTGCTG | 9610 |
| TACGCTGCCAGCGATTTCGTGCCAGCAGCTTTGACTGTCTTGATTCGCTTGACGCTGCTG | 4170 |
| GCAAATTACCATTTGAGCGTGCGGAAATAAGCTCCTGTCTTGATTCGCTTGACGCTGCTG | 6640 |
| CGGGGTTAAGTTTGGCGCGTGGGTGGCTTGCAGCAGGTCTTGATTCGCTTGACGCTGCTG | 11200 |
| AGAAGAGGCATATCGCACGTTTTACCGGGTCAGAAAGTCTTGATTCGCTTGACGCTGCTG | 12700 |
| ACTCGAATGACGAACTACCTGATCCCCTTCTTATTGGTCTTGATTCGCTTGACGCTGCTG | 3570 |
| CTAACGAAGGTTTACCACGTGTTTTACAAGCCAAGTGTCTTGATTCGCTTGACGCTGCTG | 14900 |
| AGAGAAATATCGGAACGCATGCAGACCAAATTTATAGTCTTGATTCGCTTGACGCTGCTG | 8970 |
| TGCGCAACAACTTGTTGAGTGGGTGTATGTCTAGAAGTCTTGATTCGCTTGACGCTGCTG | 5000 |
| AGATACATTACCACCTTCGTGATTGGAATGAATGGTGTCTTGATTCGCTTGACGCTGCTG | 6490 |
| ATATTCTTAGTATTCCATGTGTCTCGTAATACCTTAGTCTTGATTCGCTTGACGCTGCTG | 6720 |
| CGGGGTTAAGTTTTTCACGTGGAATGCTTGCAGCAGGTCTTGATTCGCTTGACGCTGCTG | 10000 |
| TGCGCAACAACTTGATTTGTGGGTGTATGTCTAGAAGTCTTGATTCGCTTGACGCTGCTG | 4450 |
| CACCGCCCCCAGGTAACCGTGCGGAATGAGCTAATCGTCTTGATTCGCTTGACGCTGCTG | 4680 |
| ATTGTTTCCAGGCGTCATGTGTTTCCTTGATGATATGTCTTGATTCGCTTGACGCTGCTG | 7930 |

Study 4
Target: RNA binding protein fox-1 homolog 2, RRM domain, GST-SBP tag (RBFOX2, Homo sapiens, UniProt O43251-10, residues 100-194)
Technique: RNA Bind-n-Seq
Form: RNA
Sample: in vitro
Tested at: 365 nM
Setting: natural RNA segment, single round, ends assumed
Baseline: no-protein control
Direction: higher = stronger binding
Construct (chain): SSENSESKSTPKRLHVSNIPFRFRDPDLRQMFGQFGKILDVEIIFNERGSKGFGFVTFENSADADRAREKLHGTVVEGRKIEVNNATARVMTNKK
| Oligonucleotide | RBNS enrichment (R) |
| --- | --- |
| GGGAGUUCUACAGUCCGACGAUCGUGUUGUUAGUGCUGGGCACGGAUUCUGGGACGGUGAGCUGUUGAUUUCCUAACAGAAAGAUAUUUUGAUCUAUUUUCCUAUGGAAUUGUUUCUAUUAUUAUCUUUUAAUUGGAAUUCUCGGGUGCCAA | 0.428 |
| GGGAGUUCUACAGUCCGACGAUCGUUGGGAUACACCUAUUAUCCCCUAAAAACAUACAAAUAAUGCAAAAGGAUGAUGGAGCUUCCUGGUGUCGGGUGAACAUGUUUUAAAAACUCAUUGUUCUAGUGAAGAUUGGAAUUCUCGGGUGCCAA | 0.454 |
| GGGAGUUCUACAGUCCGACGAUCGCAAUCCUUACAAAUGAUUGCUUUUAAAAUUUUAAGCUAGGAAAAGAAAUCUAUAGAAAGUGUUCUGUUACAAAAUGUAACUGUUACCAUUGGAAAUUUCACGUCAUAGGUGGAAUUCUCGGGUGCCAA | 0.493 |
| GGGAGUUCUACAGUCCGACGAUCUAUGGAAUUUUCAUUGAGUAUGUUUAAAUUAUUGGCUUGUCUACUAAUACACAUCUGCUUCAAAAUGAACAUAUUUCAUAAAAUUGGCAUCAAUUUUAAUGACGCUCCUGUGGAAUUCUCGGGUGCCAA | 0.272 |
| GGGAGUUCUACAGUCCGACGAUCAAGGAGUCUCCCCCUUCCUGCAUCACCACCUUGGUUUUGUUUUAUUUUGCUUCUUGGUCAAGAAAGGAGGGGAGAACCCAGCGCACCCCUCCCCCCCUUUUUUUAAACGCUGGAAUUCUCGGGUGCCAA | 0.912 |
| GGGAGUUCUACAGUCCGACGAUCUGAACACCGACAUCUUCAGUUUACUUGUGUCUGCAGUUCUGUGGACAGAACAAAGCCAUUCACAAGUGACCGACAGCACGUGCCGUGAGACGGGAGGUGGCUGCAGGAAGUGGAAUUCUCGGGUGCCAA | 0.689 |
| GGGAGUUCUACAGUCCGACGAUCGGUGUGUGUAAGUAUGUGUGCACAUGGGAGUGUGGGUGUGUGUGUGUGCACAUGUGUGGGUGUGUGUGCACAUGUUUGGAUGUGUGCACAUGUGCAUGCCUGUUUCUUUUUGGAAUUCUCGGGUGCCAA | 2.03 |
| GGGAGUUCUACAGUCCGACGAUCACUCCCAGAUUACCCGUGGGCGUGUGUCUGUACCGAGGCAGGGAUCUUGGCUUCCUGAUGGGAUCUCUUCUAGUGCAGUCCAGAUAGGGCUUGCAAUAUGAACCUUGGAAUGGAAUUCUCGGGUGCCAA | 0.418 |

Other studies, line by line
| Molecule | target | test | system | conditions | scale | measurement | result |
| --- | --- | --- | --- | --- | --- | --- | --- |
| PhoQ, residues 284 288 289 292 302 303 GLASVI | PhoP, residues 12 14 15 18 19 LWHSL (Escherichia coli, UniProt P23836) | Sort-seq, item: YFP reporter | E. coli | PhoQ-PhoP variant library, with: 10 µM Mg2+ | baseline: high Mg2+ state, higher = stronger signaling | fold induction | 7.55 and 3.75 |

A few entries again (study 3):
| Oligonucleotide | fluorescence intensity [a.u.] |
| --- | --- |
| CGTCCTAGCGATTGATACGTGGGTGCCATGAGGAAGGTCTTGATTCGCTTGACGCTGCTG | 9610 |
| TACGCTGCCAGCGATTTCGTGCCAGCAGCTTTGACTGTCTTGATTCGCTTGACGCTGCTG | 4170 |
| GCAAATTACCATTTGAGCGTGCGGAAATAAGCTCCTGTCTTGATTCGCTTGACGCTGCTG | 6640 |
| CGGGGTTAAGTTTGGCGCGTGGGTGGCTTGCAGCAGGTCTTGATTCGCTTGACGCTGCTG | 11200 |
